Experimental data gathered from unrelated publications.
Every numbered part comes from another study and shows a few of its results, in no order. Positions count from the first letter of the parent shown.
UniProt P06239, sequence (whole entry, looked up): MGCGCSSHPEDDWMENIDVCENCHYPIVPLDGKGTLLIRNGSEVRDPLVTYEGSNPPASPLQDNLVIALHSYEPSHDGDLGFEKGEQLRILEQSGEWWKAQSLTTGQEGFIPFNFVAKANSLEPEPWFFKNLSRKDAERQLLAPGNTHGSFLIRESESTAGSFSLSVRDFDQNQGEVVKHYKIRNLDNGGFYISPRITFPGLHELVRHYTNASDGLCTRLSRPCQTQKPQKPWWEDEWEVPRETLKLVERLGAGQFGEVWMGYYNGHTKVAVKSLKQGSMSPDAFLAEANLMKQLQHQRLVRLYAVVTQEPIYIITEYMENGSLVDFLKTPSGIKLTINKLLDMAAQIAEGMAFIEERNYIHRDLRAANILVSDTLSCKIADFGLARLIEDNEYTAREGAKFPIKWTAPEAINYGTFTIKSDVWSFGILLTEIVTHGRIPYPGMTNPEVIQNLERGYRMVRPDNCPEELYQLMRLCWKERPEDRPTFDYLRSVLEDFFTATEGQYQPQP
UniProt P29597, sequence (whole entry, looked up): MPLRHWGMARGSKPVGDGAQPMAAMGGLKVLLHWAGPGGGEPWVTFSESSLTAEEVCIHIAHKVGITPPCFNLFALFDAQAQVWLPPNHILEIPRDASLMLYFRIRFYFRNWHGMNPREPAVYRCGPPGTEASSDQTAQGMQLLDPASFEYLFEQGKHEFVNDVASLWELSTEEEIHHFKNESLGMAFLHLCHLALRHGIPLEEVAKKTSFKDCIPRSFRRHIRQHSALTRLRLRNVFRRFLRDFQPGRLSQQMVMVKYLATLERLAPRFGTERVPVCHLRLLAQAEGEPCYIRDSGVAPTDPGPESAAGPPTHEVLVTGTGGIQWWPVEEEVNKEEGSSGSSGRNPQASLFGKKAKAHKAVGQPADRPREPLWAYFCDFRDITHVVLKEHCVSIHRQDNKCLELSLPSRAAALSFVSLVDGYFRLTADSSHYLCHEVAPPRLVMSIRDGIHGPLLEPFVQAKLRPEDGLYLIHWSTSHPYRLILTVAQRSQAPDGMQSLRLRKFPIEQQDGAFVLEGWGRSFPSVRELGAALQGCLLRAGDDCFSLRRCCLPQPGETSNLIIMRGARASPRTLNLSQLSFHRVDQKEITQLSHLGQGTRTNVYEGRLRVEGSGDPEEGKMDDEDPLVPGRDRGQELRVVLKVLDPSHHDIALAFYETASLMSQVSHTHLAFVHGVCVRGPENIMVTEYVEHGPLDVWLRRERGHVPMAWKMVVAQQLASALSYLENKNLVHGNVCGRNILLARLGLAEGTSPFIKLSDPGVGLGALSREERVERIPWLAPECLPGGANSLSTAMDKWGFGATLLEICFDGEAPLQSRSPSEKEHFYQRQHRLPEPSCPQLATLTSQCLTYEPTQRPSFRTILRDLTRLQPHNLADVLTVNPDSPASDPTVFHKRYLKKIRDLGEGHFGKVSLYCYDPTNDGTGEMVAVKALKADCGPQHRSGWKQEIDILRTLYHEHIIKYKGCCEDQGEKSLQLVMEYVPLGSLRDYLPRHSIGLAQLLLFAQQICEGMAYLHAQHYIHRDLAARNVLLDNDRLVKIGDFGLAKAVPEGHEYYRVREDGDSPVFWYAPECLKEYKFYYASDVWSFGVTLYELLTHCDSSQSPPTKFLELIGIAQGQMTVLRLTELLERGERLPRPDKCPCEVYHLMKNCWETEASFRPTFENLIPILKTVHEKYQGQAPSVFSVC
UniProt Q12866, sequence (whole entry, looked up): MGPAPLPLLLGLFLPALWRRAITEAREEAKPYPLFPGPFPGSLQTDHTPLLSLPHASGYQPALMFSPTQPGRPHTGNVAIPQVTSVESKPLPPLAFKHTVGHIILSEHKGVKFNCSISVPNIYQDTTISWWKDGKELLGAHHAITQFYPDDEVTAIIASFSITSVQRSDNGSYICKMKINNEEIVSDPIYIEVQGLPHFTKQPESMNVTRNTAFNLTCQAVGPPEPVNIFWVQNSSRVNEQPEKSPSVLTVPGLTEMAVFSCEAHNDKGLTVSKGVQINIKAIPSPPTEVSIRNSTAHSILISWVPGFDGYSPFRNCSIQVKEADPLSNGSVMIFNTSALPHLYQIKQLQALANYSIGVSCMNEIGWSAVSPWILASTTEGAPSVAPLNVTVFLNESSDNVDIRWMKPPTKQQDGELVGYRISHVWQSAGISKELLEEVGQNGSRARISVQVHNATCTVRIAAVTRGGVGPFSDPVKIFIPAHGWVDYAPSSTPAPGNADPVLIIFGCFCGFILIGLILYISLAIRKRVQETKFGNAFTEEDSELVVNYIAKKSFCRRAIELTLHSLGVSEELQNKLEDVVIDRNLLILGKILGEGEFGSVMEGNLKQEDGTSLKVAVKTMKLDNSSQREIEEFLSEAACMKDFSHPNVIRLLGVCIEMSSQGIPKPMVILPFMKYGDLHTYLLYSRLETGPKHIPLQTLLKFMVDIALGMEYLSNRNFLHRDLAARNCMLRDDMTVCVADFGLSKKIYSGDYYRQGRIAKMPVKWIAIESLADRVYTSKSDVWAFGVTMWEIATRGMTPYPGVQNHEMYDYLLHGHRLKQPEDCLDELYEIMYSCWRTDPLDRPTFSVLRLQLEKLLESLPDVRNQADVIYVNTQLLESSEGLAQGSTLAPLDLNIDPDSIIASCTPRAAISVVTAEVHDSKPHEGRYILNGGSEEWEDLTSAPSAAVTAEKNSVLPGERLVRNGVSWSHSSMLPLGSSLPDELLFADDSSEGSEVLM
UniProt P42684, sequence (whole entry, looked up): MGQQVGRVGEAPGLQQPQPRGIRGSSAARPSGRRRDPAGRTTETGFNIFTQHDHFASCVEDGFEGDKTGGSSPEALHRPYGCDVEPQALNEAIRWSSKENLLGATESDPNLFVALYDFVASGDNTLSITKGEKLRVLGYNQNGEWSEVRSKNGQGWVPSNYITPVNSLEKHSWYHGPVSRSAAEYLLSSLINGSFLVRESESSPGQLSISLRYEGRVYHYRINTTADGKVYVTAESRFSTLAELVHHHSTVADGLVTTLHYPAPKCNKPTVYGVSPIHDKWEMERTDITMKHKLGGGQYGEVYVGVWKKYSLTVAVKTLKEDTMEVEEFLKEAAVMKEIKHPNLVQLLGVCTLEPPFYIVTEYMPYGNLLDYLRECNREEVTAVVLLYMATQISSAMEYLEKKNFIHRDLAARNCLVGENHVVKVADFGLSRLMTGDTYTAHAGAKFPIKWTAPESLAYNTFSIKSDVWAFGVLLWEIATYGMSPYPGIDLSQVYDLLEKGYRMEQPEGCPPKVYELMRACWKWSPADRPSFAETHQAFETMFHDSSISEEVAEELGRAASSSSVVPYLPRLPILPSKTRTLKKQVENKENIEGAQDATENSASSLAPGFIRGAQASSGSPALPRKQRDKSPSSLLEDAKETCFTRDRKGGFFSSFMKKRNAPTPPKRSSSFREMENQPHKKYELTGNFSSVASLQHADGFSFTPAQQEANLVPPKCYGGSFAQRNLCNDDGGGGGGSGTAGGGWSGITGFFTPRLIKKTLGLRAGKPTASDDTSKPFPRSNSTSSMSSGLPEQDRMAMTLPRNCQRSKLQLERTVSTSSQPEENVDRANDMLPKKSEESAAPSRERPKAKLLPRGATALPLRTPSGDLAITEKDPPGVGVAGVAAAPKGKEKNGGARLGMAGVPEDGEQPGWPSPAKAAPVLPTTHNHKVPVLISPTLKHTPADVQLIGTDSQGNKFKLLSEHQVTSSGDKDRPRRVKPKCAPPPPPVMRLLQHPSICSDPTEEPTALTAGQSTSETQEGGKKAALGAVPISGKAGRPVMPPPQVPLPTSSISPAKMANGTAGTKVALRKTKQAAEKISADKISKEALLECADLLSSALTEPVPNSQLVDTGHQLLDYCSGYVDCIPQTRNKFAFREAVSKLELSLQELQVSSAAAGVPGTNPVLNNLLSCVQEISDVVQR
UniProt O75582, sequence (whole entry, looked up): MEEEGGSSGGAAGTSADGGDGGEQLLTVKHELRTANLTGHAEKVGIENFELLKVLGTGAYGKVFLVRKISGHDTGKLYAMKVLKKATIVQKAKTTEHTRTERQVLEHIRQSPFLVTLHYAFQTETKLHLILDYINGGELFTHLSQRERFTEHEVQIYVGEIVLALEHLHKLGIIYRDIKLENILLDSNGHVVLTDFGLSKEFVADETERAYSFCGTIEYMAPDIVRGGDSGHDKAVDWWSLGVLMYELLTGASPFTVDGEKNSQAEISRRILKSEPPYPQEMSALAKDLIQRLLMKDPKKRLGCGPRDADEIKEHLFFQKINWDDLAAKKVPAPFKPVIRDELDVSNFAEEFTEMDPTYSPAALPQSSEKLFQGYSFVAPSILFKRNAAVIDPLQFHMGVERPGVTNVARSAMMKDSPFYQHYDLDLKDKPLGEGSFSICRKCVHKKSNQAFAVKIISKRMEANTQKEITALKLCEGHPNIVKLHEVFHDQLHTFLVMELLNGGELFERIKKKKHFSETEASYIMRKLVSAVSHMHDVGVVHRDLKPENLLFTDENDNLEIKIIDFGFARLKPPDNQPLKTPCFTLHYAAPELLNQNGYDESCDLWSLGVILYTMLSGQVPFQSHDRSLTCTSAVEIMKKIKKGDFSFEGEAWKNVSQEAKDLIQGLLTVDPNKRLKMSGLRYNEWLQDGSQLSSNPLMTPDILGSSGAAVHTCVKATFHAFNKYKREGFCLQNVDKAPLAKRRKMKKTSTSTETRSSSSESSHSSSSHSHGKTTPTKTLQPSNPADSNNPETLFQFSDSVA
UniProt Q9P289, sequence (whole entry, looked up): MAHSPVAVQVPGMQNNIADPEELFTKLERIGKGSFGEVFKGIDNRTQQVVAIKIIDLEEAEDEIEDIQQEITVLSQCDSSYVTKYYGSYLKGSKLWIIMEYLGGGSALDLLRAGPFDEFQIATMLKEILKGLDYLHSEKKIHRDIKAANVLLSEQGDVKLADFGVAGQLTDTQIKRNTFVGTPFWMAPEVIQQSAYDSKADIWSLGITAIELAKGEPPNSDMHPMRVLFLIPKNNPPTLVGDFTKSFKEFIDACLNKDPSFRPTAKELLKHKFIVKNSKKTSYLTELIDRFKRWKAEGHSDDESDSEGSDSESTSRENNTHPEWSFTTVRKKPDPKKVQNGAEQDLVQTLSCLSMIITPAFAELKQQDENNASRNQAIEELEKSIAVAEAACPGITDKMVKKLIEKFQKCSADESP

Series 1
Target: ABI1, truncated, D143A, DHFR fusion (Arabidopsis thaliana)
Technique: DHFR PCA, deep sequencing
Sample: yeast
Setting: methotrexate growth selection, single substitutions
Added: (+)-ABA 710 µM
Baseline: wild-type fitted maximum
Reading: higher = stronger binding
Quantity: relative binding score
Parent: PYL1, truncated, DHFR fusion (Arabidopsis thaliana); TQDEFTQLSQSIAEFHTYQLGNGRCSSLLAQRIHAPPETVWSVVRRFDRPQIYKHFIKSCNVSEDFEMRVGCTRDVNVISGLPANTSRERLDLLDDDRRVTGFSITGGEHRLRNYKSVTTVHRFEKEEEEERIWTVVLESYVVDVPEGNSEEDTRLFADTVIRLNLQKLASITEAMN; partner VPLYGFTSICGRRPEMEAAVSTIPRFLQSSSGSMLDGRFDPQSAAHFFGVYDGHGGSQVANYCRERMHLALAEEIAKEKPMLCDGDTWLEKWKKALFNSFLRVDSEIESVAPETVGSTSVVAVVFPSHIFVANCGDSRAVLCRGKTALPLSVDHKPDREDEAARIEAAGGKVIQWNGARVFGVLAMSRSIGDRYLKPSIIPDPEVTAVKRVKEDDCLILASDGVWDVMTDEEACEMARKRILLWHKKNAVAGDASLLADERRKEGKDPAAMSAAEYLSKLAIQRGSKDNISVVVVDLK
P37Y: 77%
G108T: 53.9%
D96P: 79.2%
G107H: 103%
V78F: 87.6%
V40T: 70.5%
Y53S: 68.6%
N85C: 101%

Series 2
Structure (SMILES): COc1cccc(-c2cc(=O)c3ccccc3o2)c1N
Read-out: enzyme activity
Mode: inhibitor
Tested at: 0.5 µM
Baseline: control
Quantity: remaining activity
ACVR1B (Homo sapiens, UniProt P36896): 92.5%
GRK7 (Homo sapiens, UniProt Q8WTQ7): 103%
ABL2 (Homo sapiens, UniProt P42684): 96.8%
ULK3 (Homo sapiens, UniProt Q6PHR2): 94.6%
ARAF (Homo sapiens, UniProt P10398): 98.9%
FRK (Homo sapiens, UniProt P42685): 89.5%
EPHA3 (Homo sapiens, UniProt P29320): 96.3%
CSNK1G3 (Homo sapiens, UniProt Q9Y6M4): 97.7%
MAP3K5 (Homo sapiens, UniProt Q99683): 103%
LCK (Homo sapiens, UniProt P06239): 99%
MERTK (Homo sapiens, UniProt Q12866): 98%
ULK2 (Homo sapiens, UniProt Q8IYT8): 109%
RPS6KA2 (Homo sapiens, UniProt Q15349): 96.4%
MAP2K2 (Homo sapiens, UniProt P36507): 69.2%

Series 3
Target: TAR DNA-binding protein 43, full length, His tag (TARDBP, Homo sapiens, UniProt Q13148, residues 1-414)
Technique: RNA Bind-n-Seq
Molecule type: RNA
Sample: in vitro
Tested at: 20 nM
Setting: 6-mer, flanks averaged, single round
Added: 150 mM LiCl
Baseline: input library
Reading: higher = stronger binding
Quantity: 6-mer enrichment (R)
AAAGGC: 0.846
UCAAGA: 0.796
CAUAUG: 0.911
CAUCCU: 0.871
AACCAA: 0.834
GACACC: 1.14
ACCUCA: 0.863
ACCCGU: 0.92

Series 4
Structure (SMILES): O=C(O)[C@H]1[C@H](Cn2nnc3ccccc3c2=O)CC[C@@H]1C(=O)c1ccc(OCCC2CCOCC2)cc1
Read-out: cell-free assay
Technique: competition with immobilised ligand
Tested at: 1 µM
Quantity: remaining binding
CHUK (Homo sapiens, UniProt O15111): 100%
TAOK3 (Homo sapiens, UniProt Q9H2K8): 100%
CHEK2 (Homo sapiens, UniProt O96017): 100%
KIT (Homo sapiens, UniProt P10721, V559D/V654A): 100%
MAP3K2 (Homo sapiens, UniProt Q9Y2U5): 100%
Ribosomal protein S6 kinase alpha-5, N-terminal kinase domain (RPS6KA5, Homo sapiens, UniProt O75582): 100%
PLK4 (Homo sapiens, UniProt O00444): 97%
CDK18 (Homo sapiens, UniProt Q07002): 84%
STK26 (Homo sapiens, UniProt Q9P289): 87%
EGFR (Homo sapiens, UniProt P00533, L861Q): 53%
DDR2 (Homo sapiens, UniProt Q16832): 100%
EGFR (Homo sapiens, UniProt P00533, del746-750): 80%
Non-receptor tyrosine-protein kinase TYK2, JH1 (TYK2, Homo sapiens, UniProt P29597): 41%
EPHA8 (Homo sapiens, UniProt P29322): 100%
PTK6 (Homo sapiens, UniProt Q13882): 100%
Tyrosine-protein kinase ABL1, non-phosphorylated (ABL1, Homo sapiens, UniProt P00519, T315I): 100%
FLT3 (Homo sapiens, UniProt P36888, D835V): 92%
MYLK3 (Homo sapiens, UniProt Q32MK0): 93%
Tyrosine-protein kinase ABL1, phosphorylated (ABL1, Homo sapiens, UniProt P00519, H396P): 100%

Repeated from above (series 1):
P37Y: 77%
N85C: 101%
Y53S: 68.6%
G107H: 103%
V78F: 87.6%
V40T: 70.5%
D96P: 79.2%
G108T: 53.9%
